# Published values of several laboratories.
# Every numbered part comes from another study and shows a few of its results, in no order.

# Set 1 — technique: RNA Bind-n-Seq; molecule type: RNA; sample: in vitro; tested at: 200 nM; setting: whole 134-nt RNA, ends assumed; added: 150 mM LiCl; baseline: input library; reading: higher = stronger binding; all molecules: 7-deaza-guanosine replaces G
# Target: Fragile X messenger ribonucleoprotein 1, C-terminal low-complexity region (Fmr1, Mus musculus, UniProt P35922)
Sequence,log2 enrichment
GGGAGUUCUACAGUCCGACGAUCGCAGGAAGUAAAAACAAAUGGAAAUGCUUCGGAUAGUGGCAGGGGUGGGGGUUGCUAAGGAAAGGGUGGGAUGGGAGUGGCUAAAGAGUUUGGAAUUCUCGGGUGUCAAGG,1.3
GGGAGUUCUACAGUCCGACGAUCUCAAGUCCUGUGCUACACAUCGUAUGUACCGAAUCGGAAAGGUUUGGAAAAAGGAAAGUAUUAUGUUACGCCGUUCGGAUCUGCACUUCCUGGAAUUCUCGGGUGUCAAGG,-1.04
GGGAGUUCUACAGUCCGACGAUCCACAGACAACACGCACCCACACAUACACAGAGGGAAGGGGUUGGGAUGGGGACAGGGUGCACAGCAGGGCGGGGUAGGACCCCAGCCCCUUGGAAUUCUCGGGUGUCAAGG,0.158
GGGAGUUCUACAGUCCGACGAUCCCUGUGCUACACAUCGUAUGUACCGAAUCGGGGUUUUUUUGGGGAAAGGGGAAAAAGGGGAAAGUAUUAUGUUACGCCGUUCGGAUCUGCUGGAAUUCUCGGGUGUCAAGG,-0.354
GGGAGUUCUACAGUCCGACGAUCUGCUUCUGAGUUGCCCAGGAGACCACUGGCAGAUGUCCCGGCGAAGAGAAGAGACACAUUGUUGGAAGAAGCAGCCCAUGACAGCUCCCCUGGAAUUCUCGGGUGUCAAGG,0.649
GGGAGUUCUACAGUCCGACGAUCCACAGACAACACGCACCCACACAGACACAGAGGGAGGGGGUUGGGAUGGGGACAGGGUGCACAGCAGGGCGGGGUAGGACCCCAGCCCCUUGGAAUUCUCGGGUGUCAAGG,-0.429
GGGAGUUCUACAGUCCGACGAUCCAAGUCCUGUGCUACACAUCGUAUGUACCGAAUCGGGUUUGGGGUUUGGGGUUUGGAAAGUAUUAUGUUACGCCGUUCGGAUCUGCACUUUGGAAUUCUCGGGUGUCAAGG,-1.89
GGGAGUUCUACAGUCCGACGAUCGCAGGAAGUAAAAACAAAUGGAAAUGCUUCGGAUAGUGGCAGGGGUGGGGGUUGCUAAGCAAAGGGUGGGAUGGGAGUGGGUAAAGAGUUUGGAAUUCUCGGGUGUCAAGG,1.58
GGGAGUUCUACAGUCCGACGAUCUGGCCCUGGUGGCAUGCGGGGAGAAAGAGGUGGCCUCAUGGAUCGUGGUGGUCCCGGUGGAAUGUUCAGAGGUGGCCGUGGUGGAGACAGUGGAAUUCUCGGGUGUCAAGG,0.341
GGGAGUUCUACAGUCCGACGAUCUGGGAGGUGGAUUUUGUUUAUUUUUUUAGCUCAUUUCCAGGGGAGGGAAUUUUUUUUUAAUAUGUGUCAUGAAUAAAGUUGUUUUUGAAAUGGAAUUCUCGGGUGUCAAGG,-0.289
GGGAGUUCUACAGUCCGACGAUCCUGUGCUACACAUCGUAUGUACCGAAUCGGGUUUUUUUGGGGUUUUUUUGGGUUUUUUUGGGAAAGUAUUAUGUUACGCCGUUCGGAUCUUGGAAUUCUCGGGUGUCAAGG,1.19

# Set 2 — target: human cyclin B1; read-out: peptide binding; technique: yeast competitive growth sequencing; molecule type: peptide; organism: Saccharomyces cerevisiae; strain: cyclin B1-Cln2 fusion; tested at: concentration not given; setting: peptide tiling library; reading: direction not given
Molecule,binding enrichment score
VKRLNFRSEEME,1.21
QYQVVDDIVSKLVFDF,1.1
ALLRRLQDVANDRGSH,-0.126
SGYLTDENEVGFRG,0.305
PQWPCGKHKRVLIFAS,-0.38
FQDSGYNELKSCSFDN,0.163
DTERAHSTLDEDLERW,-0.166
ARKRLELGNLGNPQ,-0.119
AEHPKPSACRNLFGPV,0.046
ALTMEALEDPSPELME,1.55
LRRKLFLDGNGSIS,-0.331
RKLHFEDEVT,0.764
ESSQLTVQAEFDMSAI,0.233
LRRQLSFSED,1.81
KPKPVKPVTFSTGIKM,-0.341
VRDLSYRLVFLACCVA,-0.351
GAEELEDLVHFSVSEL,1
LENIEPLQVSFAVLSS,-0.0822

# Set 3 — technique: protein-binding microarray; molecule type: double-stranded DNA, one strand shown; sample: in vitro; tested at: 2540 nM top; setting: 60-bp whole probe; added: salmon DNA 0.4 mg/ml; baseline: random background probes; reading: higher = stronger binding; shared flanks, not repeated: GCCTAGCAC … GTCTTGATTCGCTTGACGCTGCTG
# Target: Interferon regulatory factor 3, full length, phosphomimetic (IRF3, Homo sapiens, UniProt Q14653, residues 1-427, S386D/S396D/S398D/S402D/T404D/S405D)
# Sequence of UniProt Q14653 (whole entry, unmodified, looked up): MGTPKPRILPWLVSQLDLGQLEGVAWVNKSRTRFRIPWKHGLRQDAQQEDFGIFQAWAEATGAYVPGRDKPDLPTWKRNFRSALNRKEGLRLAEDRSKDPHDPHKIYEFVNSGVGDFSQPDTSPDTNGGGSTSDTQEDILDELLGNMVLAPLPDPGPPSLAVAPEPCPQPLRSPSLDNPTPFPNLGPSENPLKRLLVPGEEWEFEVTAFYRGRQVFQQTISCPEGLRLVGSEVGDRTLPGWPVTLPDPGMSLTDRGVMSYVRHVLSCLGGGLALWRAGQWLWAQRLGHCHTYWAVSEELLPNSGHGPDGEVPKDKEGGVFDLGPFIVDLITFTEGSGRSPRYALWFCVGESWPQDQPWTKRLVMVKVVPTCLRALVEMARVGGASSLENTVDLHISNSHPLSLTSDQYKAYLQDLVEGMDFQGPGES
Sequence,fitted relative affinity [z-score]
GACGGTCTCCGTTTCGGGACGTGCTAG,4.14
TATATATCCATTATAGATGAGTGCTAG,1.63
GACGGTTTAGGGACTGGGGACGTGCTA,0.117
TCATTTTTCTAACTAAAACTGTGCTAG,2.32
TTAGGTTTTCTTTCCCTTTAGTGCTAG,5.14
TTAGTACTGGGTTTCGGTTAGTGCTAG,3.21
TCAAAGATTTTTATCAAACTGTGCTAG,-0.24
GGCGATTTCAGTCTCGAGACGTGCTAG,2.19
GACGGATTGGACACTGGGGACGTGCTA,-0.222
TGAACTAGCGGGTCTTGCAGTGTGCTA,-0.595
TTAGATATCGACTATCGGTTAGTGCTA,-0.066
GAAGGTATCGGGTTTCGGGACGTGCTA,2.71
GACGATATCGGGATTGGAGACGTGCTA,0.259
CCTCCTCTCTCTTTCCACTTGTGCTAG,1.7
TTAGCTATCAGTTTCGATTAGTGCTAG,4.44
TCACCTTTCCTTTGCCTACTGTGCTAG,3.5
GACGGTCTCCTTCTCGTGACGTGCTAG,4.37
TTAGGTATCGACTTTCGGCTAGTGCTA,0.917
TTAGGTATTGGGACTGGGTTAGTGCTA,-0.743
TCTTTTATTTTTTTTATTTAGTGCTAG,2.04
TCAGGTTTTCTAATGTTACTGTGCTAG,1
TAGTTTTCAATTTTTGCATCGTGCTAG,2.39
TTCGGTTCCCTTTTCCTTTAGTGCTAG,7.19
GGCGGACTGGACACTGGGGACGTGCTA,-0.965
GACGGCATCGGGACTGGGGACGTGCTA,-1.06

# Set 4 — technique: protein binding microarray; molecule type: double-stranded DNA, one strand shown; sample: in vitro; tested at: not given; baseline: not given; reading: higher = stronger binding
# Target: Histone acetyltransferase KAT6A, winged helix 2, GST fusion (KAT6A, Homo sapiens, UniProt Q92794, residues 85-181)
# Setting: 8-mer, flanks averaged, mean of 2 arrays, mostly near background
# Construct (chain): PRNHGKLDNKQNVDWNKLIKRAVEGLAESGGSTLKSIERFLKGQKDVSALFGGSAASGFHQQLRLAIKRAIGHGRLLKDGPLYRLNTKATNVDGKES
Sequence,E-score
ACGTAATG,-0.244
ATCGGAGC,0.039
ATAAAGAA,0.123
AGCCCGCG,0.169
AGGATTTA,-0.0088
GAGATGCC,-0.134
AGGAGTTA,0.00012
AGCGACCG,0.147
CGGTTGAC,0.0742
AGCTTGGA,0.019
CTCCTATA,-0.151
GTCGAACA,0.196
GGCCGTTA,-0.0164
GATGGTCC,-0.0806
ACAAGAAG,-0.0655
TGTACTAA,-0.0145
CTAATTAC,0.0573
CCAAAGAA,0.133
CAACGCGG,0.0866
GGAAGTCA,-0.093
GCAGGTAA,-0.094
CCTCAGTA,-0.108
AGCATCGG,0.107
CATCTCCC,-0.138

# Set 5 — technique: protein-binding microarray; molecule type: double-stranded DNA, one strand shown; sample: in vitro; tested at: 0.8 µM; setting: whole 60-bp probe, no competitor; reading: higher = stronger binding
# Target: Centromere-binding protein 1, full length, N-terminal tag (CBF1, Saccharomyces cerevisiae, UniProt P17106, residues 1-351)
# Sequence of UniProt P17106 (whole entry, looked up): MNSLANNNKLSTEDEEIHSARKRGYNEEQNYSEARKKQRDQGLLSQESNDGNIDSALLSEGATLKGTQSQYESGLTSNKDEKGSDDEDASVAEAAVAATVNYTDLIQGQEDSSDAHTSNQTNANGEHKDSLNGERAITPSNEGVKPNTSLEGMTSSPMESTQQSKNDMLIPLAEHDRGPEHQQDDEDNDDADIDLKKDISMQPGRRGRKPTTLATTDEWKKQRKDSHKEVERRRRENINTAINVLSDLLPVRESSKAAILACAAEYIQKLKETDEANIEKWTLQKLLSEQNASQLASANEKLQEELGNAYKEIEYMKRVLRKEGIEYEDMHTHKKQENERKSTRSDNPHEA
Sequence,fluorescence intensity [a.u.]
GAAATTTTGCTACCCCACGTCACCAATGCACTATAGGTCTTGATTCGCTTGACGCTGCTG,552
GAACAGGCATTCCATGTGATAATGAAATTCTCGTAGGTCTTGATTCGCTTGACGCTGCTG,1170
CTAGAACAAATGTGTCACCAAGGTTGGAACAAATTCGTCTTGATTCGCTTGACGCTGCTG,489
CTACACTAACGAAGTGACATCATGGTAAATTCATTCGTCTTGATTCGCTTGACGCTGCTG,546
CTATGAAGGTTTGTACATGTGCGAGTTCATGAGTTCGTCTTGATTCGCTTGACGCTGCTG,711
CTATTGTTCAAGTTTCACCTGTTCATCAAGTATTTCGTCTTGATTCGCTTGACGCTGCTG,579
GAAAATTGAACGGTTGGTCAGGAGAACGAAGAATAGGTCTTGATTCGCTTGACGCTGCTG,645
CTAAAGTGTGGCGGTCACGCTGAACGCAGGAGATTCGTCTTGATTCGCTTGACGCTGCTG,870
GAAATCGTTAAACGTGATATTCCTACTATGTTATAGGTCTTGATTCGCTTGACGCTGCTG,977
CTATCTATCTGTATTTACGTGATTTTATGAAGTTTCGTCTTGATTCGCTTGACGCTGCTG,643
GAAAAAACACAAAGGCACATGGTTGTATAGATCTAGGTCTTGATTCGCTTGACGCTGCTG,658
CTATACAAATAAATACACGAGCGATGTCGGACTTTCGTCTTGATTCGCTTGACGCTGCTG,537
CTATTAGTAGTGTATTATCACATGGTGTGTAAGTTCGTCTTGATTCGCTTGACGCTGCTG,1990
GAATAGACATCTCGCATGACCACAATGCTGGCTTAGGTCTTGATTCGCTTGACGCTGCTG,605
GAATGTCACTATCATCACGCCCTAGAGCCAAGTTAGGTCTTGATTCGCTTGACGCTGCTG,588
GAACTGGGTACACCACTCGTGCGTCCCTTGGAGTAGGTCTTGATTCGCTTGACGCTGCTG,497
CTAATCTTCATCATGCACGTCGGTAACGGAAGCTTCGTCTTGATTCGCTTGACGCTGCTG,550
CTAATCATACAATACATCAGGACCTGCGTACAATTCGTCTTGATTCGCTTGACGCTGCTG,545
CTACTTACTCAAGGTGACACAATCGTTACGACATTCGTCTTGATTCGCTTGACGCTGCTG,564
CTAAAAGTTGAACGTGGTGAGTCTTTAACAAAATTCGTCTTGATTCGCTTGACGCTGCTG,570
CTAGTCAAAAGAACGCACATGAAAGGAGTGACATTCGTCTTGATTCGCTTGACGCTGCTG,556
CTAGCATGTAGGAAGGTGATGATATGCTCCGTATTCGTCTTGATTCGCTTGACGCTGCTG,498
GAAATCGCAACTTTTATCGTGACCTACGACCAGTAGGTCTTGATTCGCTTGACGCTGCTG,640
CTAAAAAAGAAGTTGAACGTGATTTCATTTGTTTTCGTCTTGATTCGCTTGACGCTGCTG,1100
CTAGTTCTTGGGCACCTGATCTCAAATTGCAAGTTCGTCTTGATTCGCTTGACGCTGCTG,3910
